# Literature values, collected from citations in different studies.
# Numbered parts are unrelated; values within a part may stem from several laboratories. Values joined by “and” are separate records of one study, mostly repeats; a detail may differ. ± marks the error that the study gave.
# Sequence of UniProt Q8JUX6 (whole entry, looked up): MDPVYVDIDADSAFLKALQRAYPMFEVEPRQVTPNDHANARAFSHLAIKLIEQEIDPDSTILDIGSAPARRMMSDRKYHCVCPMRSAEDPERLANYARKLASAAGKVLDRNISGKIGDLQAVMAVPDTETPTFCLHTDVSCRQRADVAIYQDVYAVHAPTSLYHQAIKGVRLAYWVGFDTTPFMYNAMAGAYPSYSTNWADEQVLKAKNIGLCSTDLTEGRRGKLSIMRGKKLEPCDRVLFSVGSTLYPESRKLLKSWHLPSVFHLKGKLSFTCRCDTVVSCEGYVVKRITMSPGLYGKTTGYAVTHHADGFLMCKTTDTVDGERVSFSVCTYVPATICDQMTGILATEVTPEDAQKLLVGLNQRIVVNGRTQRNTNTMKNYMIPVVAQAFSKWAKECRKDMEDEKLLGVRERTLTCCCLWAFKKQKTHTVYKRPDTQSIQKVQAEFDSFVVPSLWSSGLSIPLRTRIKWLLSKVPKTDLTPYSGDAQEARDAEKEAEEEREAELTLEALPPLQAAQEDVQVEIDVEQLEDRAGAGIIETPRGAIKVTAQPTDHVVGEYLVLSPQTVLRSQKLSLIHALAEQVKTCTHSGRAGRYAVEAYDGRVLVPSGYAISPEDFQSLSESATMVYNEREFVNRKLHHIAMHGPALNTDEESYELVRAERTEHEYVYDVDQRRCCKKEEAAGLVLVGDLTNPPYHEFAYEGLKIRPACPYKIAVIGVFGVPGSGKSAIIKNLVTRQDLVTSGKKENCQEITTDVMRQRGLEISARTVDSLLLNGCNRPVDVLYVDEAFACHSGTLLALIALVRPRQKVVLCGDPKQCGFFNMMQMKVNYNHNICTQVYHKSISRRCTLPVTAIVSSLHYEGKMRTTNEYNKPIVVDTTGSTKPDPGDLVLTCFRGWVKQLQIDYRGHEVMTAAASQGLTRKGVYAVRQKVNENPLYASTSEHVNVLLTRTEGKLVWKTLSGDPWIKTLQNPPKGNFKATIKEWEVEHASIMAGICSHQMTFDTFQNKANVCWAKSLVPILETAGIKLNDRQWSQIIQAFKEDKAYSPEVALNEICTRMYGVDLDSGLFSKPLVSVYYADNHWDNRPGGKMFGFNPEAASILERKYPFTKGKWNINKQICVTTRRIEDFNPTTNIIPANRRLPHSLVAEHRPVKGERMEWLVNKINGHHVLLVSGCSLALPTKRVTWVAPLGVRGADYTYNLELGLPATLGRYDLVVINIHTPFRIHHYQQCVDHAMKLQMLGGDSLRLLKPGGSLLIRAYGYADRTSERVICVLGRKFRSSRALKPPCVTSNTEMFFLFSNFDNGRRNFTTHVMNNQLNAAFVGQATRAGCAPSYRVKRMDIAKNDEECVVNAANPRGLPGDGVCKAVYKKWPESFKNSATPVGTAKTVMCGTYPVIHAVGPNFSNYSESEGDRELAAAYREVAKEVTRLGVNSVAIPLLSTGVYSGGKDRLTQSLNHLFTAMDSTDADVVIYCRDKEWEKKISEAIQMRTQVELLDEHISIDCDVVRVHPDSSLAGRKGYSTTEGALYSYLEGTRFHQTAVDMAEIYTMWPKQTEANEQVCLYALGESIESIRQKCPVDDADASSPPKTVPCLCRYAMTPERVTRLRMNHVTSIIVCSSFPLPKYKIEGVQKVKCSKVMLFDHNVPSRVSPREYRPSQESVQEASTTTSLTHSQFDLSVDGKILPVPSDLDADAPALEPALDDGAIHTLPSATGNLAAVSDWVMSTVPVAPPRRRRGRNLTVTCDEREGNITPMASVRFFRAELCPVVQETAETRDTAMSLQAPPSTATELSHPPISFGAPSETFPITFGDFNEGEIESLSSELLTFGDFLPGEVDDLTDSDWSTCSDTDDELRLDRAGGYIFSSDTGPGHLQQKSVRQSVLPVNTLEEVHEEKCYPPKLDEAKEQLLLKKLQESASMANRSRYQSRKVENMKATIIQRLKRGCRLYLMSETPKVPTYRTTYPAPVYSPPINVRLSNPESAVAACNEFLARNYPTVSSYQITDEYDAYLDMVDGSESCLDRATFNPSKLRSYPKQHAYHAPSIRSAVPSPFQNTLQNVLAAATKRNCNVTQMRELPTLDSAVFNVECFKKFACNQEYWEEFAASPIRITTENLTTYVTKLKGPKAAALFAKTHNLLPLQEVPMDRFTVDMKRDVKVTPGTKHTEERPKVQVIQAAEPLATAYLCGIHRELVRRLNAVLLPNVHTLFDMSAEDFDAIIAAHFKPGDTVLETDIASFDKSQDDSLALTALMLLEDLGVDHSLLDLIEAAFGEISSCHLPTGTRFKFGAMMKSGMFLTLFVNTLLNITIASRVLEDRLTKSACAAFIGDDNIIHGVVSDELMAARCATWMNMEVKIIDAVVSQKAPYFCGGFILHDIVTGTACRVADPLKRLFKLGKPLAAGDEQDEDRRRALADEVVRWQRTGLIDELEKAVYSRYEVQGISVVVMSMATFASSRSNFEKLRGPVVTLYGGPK

# Block 1
# Organism: SARS-CoV-2
# Read-out: cytopathic effect
# Cell line: Caco-2
# Concentration: 10 µM
SMILES,inhibition [%]
Oc1cc2c(cc1O)CN(C(=S)NCCc1ccc(Cl)cc1)CCC2,-31.2
CC(=O)[O][Hg][c]1ccccc1,46.4
O=C(O)c1ccc(N2C(=O)/C(=C\c3ccc(-c4ccc([N+](=O)[O-])cc4)o3)C=C2c2ccccc2)cc1,-7.5
CCC[C@H](NC(=O)/C(C#N)=C/c1cccc(Br)n1)c1ccccc1,-11.5
COc1cc(-c2ccc(/N=N/c3ccc4c(S(=O)(=O)O)cc(S(=O)(=O)O)c(N)c4c3O)c(OC)c2)ccc1/N=N/c1ccc2c(S(=O)(=O)O)cc(S(=O)(=O)O)c(N)c2c1O,18.9
CCCCCCCCCCCCCCCCCC[S+](CCC)c1ccccc1C(=O)OCC (centres unmarked),131
CC(=O)OC[C@H]1O[C@@H]([S-])[C@H](OC(C)=O)[C@@H](OC(C)=O)[C@@H]1OC(C)=O.CCP(CC)CC.[Au+],12.8
Oc1cc2c(cc1O)[C@@H]1c3ccc(O)c(O)c3OC[C@]1(O)C2,-7.3
COc1nc2ccc(Br)cc2cc1[C@@H](c1ccccc1)[C@@](O)(CCN(C)C)c1cccc2ccccc12,6.6
CCn1c(-c2nonc2N)nc2cnc(Oc3cccc(NC(=O)c4ccc(OCCN5CCOCC5)cc4)c3)cc21,-4.4
O=C1C=CC(=O)C2=C1C1c3ccccc3C2c2ccccc21,23.8
CCOc1ccc(Nc2nc(-c3c(C)nc4ccccn34)cs2)cc1,65.2
NC[C@@H]1O[C@H](C23CC4CC(CC(C4)C2)C3)Cc2c1ccc(O)c2O,-7.2
OC[C@H]1O[C@H]([S-])[C@H](O)[C@@H](O)[C@@H]1O.[Au+],2.4
CSc1ccc(C(=O)c2[nH]c(=O)[nH]c2C)cc1,6.4
N#CSc1cc(SC#N)c(N)nc1N,3.2
CS/C(N)=C(C#N)/C(C#N)=C(\N)SC,17.7
O=C(O)c1ccccc1-c1c2cc(Br)c(=O)cc-2oc2[c]([Hg][OH])c(O)c(Br)cc12,16
Oc1c(I)cc(I)c(O)c1I,9.2
N=c1c[n+](N2CCOCC2)[n-]o1,-6.9
CC(C)Nc1cccnc1N1CCN(C(=O)c2cc3cc(NS(C)(=O)=O)ccc3[nH]2)CC1.CS(=O)(=O)O,-1.6
C[C@@](Cc1ccc(O)c(O)c1)(NN)C(=O)O,4.6
O=C1C2CC=CCC2C(=O)N1SC(Cl)(Cl)Cl (centres unmarked),8.2
COc1ccc(OC)c2c(=S)c3ccccc3[nH]c12,-7.4
CCN(CC)c1ccc(C(=C2C=CC(=[N+](CC)CC)C=C2)c2ccccc2)cc1,5.5

# Block 2
# Organism: SARS-CoV-2
# Read-out: viral cytopathic effect
# Cell line: Vero E6
# Concentration: 20 µM
Compound,inhibition [%]
O=C(N/N=C/c1ccc([N+](=O)[O-])o1)c1cc([N+](=O)[O-])cc([N+](=O)[O-])c1O,-0.18
CC1(C)C(/C=C/C=C/C=C/C=C2\N(CCCCS(=O)(=O)O)c3ccc4ccccc4c3C2(C)C)=[N+](CCCCS(=O)(=O)[O-])c2ccc3ccccc3c21,-0.23
CN(C)[C@@H]1C(O)=C(C(N)=O)C(=O)[C@@]2(O)C(O)=C3C(=O)c4c(O)cccc4[C@@](C)(O)[C@H]3[C@H](O)[C@@H]12,-0.13

# Other studies, line by line
SMILES,tested on,assay,test system,conditions,how to read,endpoint,value
Cn1c(Cn2ccc(C(F)(F)F)c(Oc3cc(Cl)cc(C#N)c3)c2=O)n[nH]c1=O,HIV-1,viral replication,"MT-4, Y181C mutant",,,EC50,26.8 ± 7.1 nM
O=c1c(O)c(-c2cc(O)c(O)c(O)c2)oc2cc(O)cc(O)c12,Ebola virus VP35,"dsRNA binding, inhibitor",,,,IC50,2700 nM
O=C(O[C@@H]1Cc2c(O)cc(O)cc2O[C@@H]1c1cc(=O)c(O)c2c(O)c(O)cc([C@H]3Oc4cc(O)cc(O)c4C[C@H]3O)c2c1)c1cc(O)c(O)c(O)c1,SARS-CoV-2 main protease,"enzyme activity, inhibitor",,,,IC50,18500 nM
CCN(CC)CCCC(C)Nc1ccnc2cc(Cl)ccc12 (centres unmarked),SARS-CoV-2,cytopathic effect,USA_WA1/2020,,,IC50,6500 nM
Cn1cnc(Cn2c(=O)[nH]/c(=N\c3cc4cn(C)nc4cc3Cl)n(Cc3cc(F)c(F)cc3F)c2=O)n1,SARS-CoV-2,,,,,EC50,370 nM
CCCCCCCCCCCCCCCCOCCOP(=O)(O)COC(CO)Cn1cnc(N)nc1=O (centres unmarked),Vaccinia virus,viral replication,"HEL human embryonic lung fibroblasts, Lederle",,,IC50,0.037 µg/mL
CC[C@H](C)[C@@H]1NC(=O)[C@@H](NC(=O)[C@H](CCC(=O)O)NC(=O)[C@H](CC(N)=O)NC(=O)[C@@H](N)CO)CSSC[C@@H]2NC(=O)[C@@H]3CSSC[C@@H](C(=O)N[C@H](C(=O)N4CCC[C@H]4C(=O)N[C@H](C(=O)N4CCC[C@H]4C(=O)NCC(=O)O)[C@@H](C)CC)C(C)C)NC(=O)[C@H](C(C)C)NC(=O)[C@H](CCC(=O)O)NC(=O)[C@H](Cc4ccccc4)NC(=O)[C@H](CO)NC(=O)[C@H](Cc4c[nH]cn4)NC(=O)[C@H](CCCNC(=N)N)NC(=O)[C@H](CCCNC(=N)N)NC(=O)[C@H](CCCCN)NC(=O)[C@H](Cc4ccc(O)cc4)NC(=O)[C@H](CSSC[C@H](NC(=O)[C@H](CO)NC(=O)[C@H](CC(C)C)NC(=O)[C@H](Cc4c[nH]c5ccccc45)NC(=O)[C@H](CCCCN)NC(=O)[C@H](CCCNC(=N)N)NC1=O)C(=O)N[C@@H](C(C)C)C(=O)N[C@@H](CC(=O)O)C(=O)N[C@@H](CCCNC(=N)N)C(=O)N[C@@H](CCCCN)C(=O)N[C@@H](CC(N)=O)C(=O)N[C@@H](CC(=O)O)C(=O)N3)NC(=O)[C@H](CCC(=O)O)NC(=O)[C@H](CC(C)C)NC(=O)CNC(=O)[C@H](CCC(=O)O)NC2=O,rat ASIC1a,inhibitor,,,,IC50,1000 ± 100 nM
COc1ccc(C[C@H]2NC[C@H](O)[C@H]2OC(C)=O)cc1,SARS-CoV-2,viral infection,Vero E6,,,IC50,31.4 nM
COc1ccc([C@@H]2CC(=O)c3c(O)cc(O[C@@H]4O[C@H](CO[C@@H]5O[C@@H](C)[C@H](O)[C@@H](O)[C@H]5O)[C@@H](O)[C@H](O)[C@H]4O)cc3O2)cc1O,"Polyprotein P1234, nsP2 protease domain (Chikungunya virus, UniProt Q8JUX6)","enzyme activity, inhibitor",,,,IC50,7100 ± 1100 nM
CC1(C)[C@@H](O)CC[C@]2(C)[C@H]3C(=O)C=C4[C@@H]5C[C@@](C)(C(=O)O)CC[C@]5(C)CC[C@@]4(C)[C@]3(C)CC[C@@H]12,SARS-CoV-2,viral replication,,,,EC50,3170 nM
O=c1c2ccccc2[se]n1-c1ccccc1O,SARS-CoV-2 papain-like protease,enzyme activity,,added: 2 mM DTT,,IC50,236 ± 107 nM
Cc1cccc(/C=N/Nc2cc(N3CCOCC3)nc(OCCc3ccccn3)n2)c1,SARS-CoV-2,cytopathic effect,USA_WA1/2020,,,IC50,23 nM
O=C(Nc1ccccc1O)c1ccccc1[Se][Se]c1ccccc1C(=O)Nc1ccccc1O,SARS-CoV-2 papain-like protease,enzyme activity,,added: 2 mM DTT,,IC50,339 ± 109 nM
O=C(/C=C/c1ccc(O)c2oc(-c3ccc(O)c(O)c3)cc12)O[C@H](Cc1ccc(O)c(O)c1)C(=O)O,SARS-CoV-2,viral replication,,,,EC50,3410 nM
C[C@@H]1CCO[C@H]2Cn3cc(C(=O)NCc4ccc(F)cc4F)c(=O)c(O)c3C(=O)N12,HIV-1,viral replication,integrase N155H mutant,,,EC50,3.6 ± 1.3 nM
N#Cc1ccccc1-c1cc(-c2ccccn2)cn(-c2ccccc2)c1=O,"Replicase polyprotein 1ab, main protease (rep, Severe acute respiratory syndrome coronavirus 2, UniProt P0DTD1)",,,,,IC50,100000 to 250000 nM
Cc1nnc(C(=O)NC(C)(C)c2nc(C(=O)NCc3ccc(F)cc3)c(O)c(=O)n2C)o1,HIV-1,viral replication,integrase R263K mutant,,,EC50,5.7 ± 2.3 nM
CCC(CC)COC(=O)[C@H](C)N[P@](=O)(OC[C@H]1O[C@@](C#N)(c2ccc3c(N)ncnn23)[C@H](O)[C@@H]1O)Oc1ccccc1,"Replicase polyprotein 1ab, nsp12 RdRp (rep, Severe acute respiratory syndrome coronavirus 2, UniProt P0DTD1)","RdRp reporter activity, inhibitor",,concentration not given,,inhibition,inhibited
Nc1ccn(C[C@@H](CO)OCP(=O)(O)O)c(=O)n1,Vaccinia virus,viral replication,"HFF human foreskin fibroblasts, WR",,,IC50,18000 nM and 28000 nM
CN1CCCN(c2cccnc2)CC1,nicotinic acetylcholine receptor alpha7,"binding, radioligand displacement",,added: [3H]alpha-bungarotoxin,,IC50,4600 nM
CCOC(=O)[C@H]1O[C@@H]1C(=O)N[C@@H](CC(C)C)C(=O)NCCC(C)C,Ebola virus,viral replication,,concentration not given,,infectious progeny yield,decreased
COc1cc2c(c3oc(=O)c4c(c13)CCC4=O)[C@@H]1C=CO[C@@H]1O2,,,"rhesus monkey, urine",24 h,relative to: dose,"urinary excretion, chloroform-extractable",~10%
